# Experimental data of several laboratories.
# Lines come from different studies, so protocols differ.
# Organism: Klebsiella pneumoniae
SMILES,test,system,setting,MIC
CC[C@H](C)[C@H](NC(=O)[C@H](CC(C)C)NC(=O)[C@H](CCCCN)NC(=O)[C@@H](NC(=O)[C@H](C)NC(=O)[C@H](CCC(=O)O)NC(=O)[C@H](Cc1c[nH]cn1)NC(=O)[C@@H](NC(=O)[C@H](CCCCN)NC(=O)[C@H](CCC(N)=O)NC(=O)[C@H](Cc1ccccc1)NC(=O)[C@@H](NC(=O)[C@H](CCCCN)NC(=O)[C@H](CCCCN)NC(=O)[C@H](CC(C)C)NC(=O)[C@H](C)N)C(C)C)[C@@H](C)CC)[C@@H](C)CC)C(N)=O,CLSI broth microdilution,ATCC 13883,"18 h, 37 °C",16 µM
C[C@H]1COc2c(N3CCN(C)CC3)c(F)cc3c(=O)c(C(=O)O)cn1c23,broth microdilution,ATCC 43816 acrAB overexpressor,,< 0.5 µg/mL
CC[C@H](C)[C@H](NC(=O)[C@H](Cc1c[nH]c2ccccc12)NC(=O)[C@@H](NC(=O)[C@H](Cc1ccccc1)NC(=O)[C@@H]1CCCN1C(=O)[C@@H](NC(=O)[C@H](C)N)[C@@H](C)CC)[C@@H](C)CC)C(=O)N[C@@H](Cc1ccccc1)C(=O)N[C@@H](CCCNC(=N)N)C(=O)N[C@@H](CC(C)C)C(=O)N[C@@H](CC(C)C)C(=O)N[C@@H](CCCNC(=N)N)C(=O)N[C@@H](CCCCN)C(=O)NCC(N)=O,broth microdilution,ATCC 700603,"18 h, 37 °C",> 15 µM
CN(C)c1ncc(O)c2c1C[C@H]1C[C@H]3[C@H](N(C)C)C(O)=C(C(N)=O)C(=O)[C@@]3(O)C(O)=C1C2=O.Cl.Cl,,tet(A)-carrying,,> 32 µg/mL
CC[C@H](C)[C@H](NC(=O)[C@H](CC(C)C)NC(=O)[C@H](CCCCN)NC(=O)[C@H](CC(C)C)NC(=O)CNC(=O)[C@@H](NC(=O)[C@H](CO)NC(=O)[C@@H](NC(=O)[C@@H](NC(=O)[C@H](CCC(N)=O)NC(=O)[C@H](Cc1c[nH]c2ccccc12)NC(=O)[C@H](CCCNC(=N)N)NC(=O)[C@H](CC(N)=O)NC(=O)[C@H](CCCNC(=N)N)NC(=O)[C@H](CCCNC(=N)N)NC(=O)[C@@H](NC(=O)[C@H](Cc1ccccc1)NC(=O)[C@H](CCCNC(=N)N)NC(=O)CNC(=O)[C@H](C)NC(=O)[C@H](CCCNC(=N)N)NC(=O)[C@H](CCCNC(=N)N)NC(=O)[C@H](CCCCN)NC(=O)[C@H](Cc1ccccc1)NC(=O)[C@H](CCCNC(=N)N)NC(=O)CNC(=O)[C@H](Cc1c[nH]c2ccccc12)NC(=O)[C@H](CCCNC(=N)N)NC(=O)CNC(=O)[C@H](CCCNC(=N)N)NC(=O)[C@@H](N)[C@@H](C)O)[C@@H](C)CC)[C@@H](C)CC)[C@@H](C)CC)[C@@H](C)O)C(=O)NCC(=O)O,,ATCC 43823,highest concentration 50 µM,0.3 µM
CC(=O)N[C@@H](CCCCN)C(=O)N[C@@H](CCCCN)C(=O)N[C@@H](CC(C)C)C(=O)N[C@@H](CC(C)C)C(=O)N[C@@H](CCCCN)C(=O)N[C@@H](CC(C)C)C(=O)N[C@@H](CC(C)C)C(=O)N[C@@H](CCCCN)C(=O)N[C@@H](CCCCN)C(=O)N1CCC[C@H]1C(=O)N[C@@H](C)C(=O)N[C@@H](CCCCN)C(=O)N[C@@H](CC(C)C)C(=O)N[C@@H](CC(C)C)C(=O)N[C@@H](CCCCN)C(N)=O,broth microdilution,ATCC 700603,"18 h, 37 °C, compound alone",> 80 µM
C[C@H]1COc2c(N3CCN(C)CC3)c(F)cc3c(=O)c(C(=O)O)cn1c23,,ATCC 700603 ESBL SHV-18,,0.5 µg/mL
CN(C)[C@@H]1C(O)=C(C(N)=O)C(=O)[C@@]2(O)C(O)=C3C(=O)c4c(cnc(-c5ccccc5)c4O)C[C@H]3C[C@@H]12.Cl.Cl,,tet(A)-carrying,,> 32 µg/mL
CC[C@H](C)[C@H](N)C(=O)N[C@@H](CC(C)C)C(=O)NCC(=O)N[C@H](CCCNC(=N)N)C(=O)N[C@H](C(=O)N[C@H](C(=O)N[C@@H](CCCCN)C(=O)NCC(=O)N[C@H](C(=O)N[C@@H](CCCCN)C(=O)N[C@@H](CC(=O)O)C(=O)N[C@H](C(=O)N[C@@H](CC(C)C)C(N)=O)[C@@H](C)CC)[C@@H](C)CC)C(C)C)[C@@H](C)CC,broth microdilution,"ATCC 27736, Mueller-Hinton broth","16 h, 37 °C",100 µM
CC[C@H](C)[C@H](NC(=O)[C@H](C)NC(=O)[C@H](CCCCN)NC(=O)[C@H](CC(C)C)NC(=O)[C@H](C)NC(=O)[C@@H](NC(=O)[C@H](Cc1c[nH]cn1)NC(=O)[C@H](CC(C)C)NC(=O)[C@@H](NC(=O)[C@@H](NC(=O)[C@H](CCCCN)NC(=O)[C@H](C)NC(=O)[C@H](C)NC(=O)[C@H](CO)NC(=O)[C@H](CCCCN)NC(=O)[C@H](Cc1ccccc1)NC(=O)[C@@H](NC(=O)[C@H](CCCCN)NC(=O)[C@H](CC(C)C)NC(=O)[C@H](Cc1ccccc1)NC(=O)[C@H](CO)NC(=O)[C@H](CCCCN)NC(=O)[C@H](Cc1c[nH]c2ccccc12)NC(=O)[C@H](CCCCN)NC(C)=O)[C@@H](C)O)[C@@H](C)O)C(C)C)[C@@H](C)O)C(=O)N[C@@H](CO)C(=O)N[C@@H](CO)C(N)=O,,ESBL ATCC 700603,range,8 µg/mL
CCCNc1nc(F)c2c(c1O)C(=O)C1=C(O)[C@]3(O)C(=O)C(C(N)=O)=C(O)[C@@H](N(C)C)[C@@H]3C[C@@H]1C2.Cl.Cl,,tet(A)-carrying,,32 µg/mL
CC[C@H](C)[C@H](NC(=O)CNC(=O)[C@H](CC(=O)O)NC(=O)[C@H](CCCNC(=N)N)NC(=O)[C@@H](NC(=O)[C@H](CC(N)=O)NC(=O)[C@H](CCCNC(=N)N)NC(=O)CNC(=O)[C@@H](NC(=O)[C@H](CCCCN)NC(=O)[C@H](CCC(=O)O)NC(=O)[C@@H](NC(=O)[C@H](CCCCN)NC(=O)[C@H](CCCCN)NC(=O)[C@H](Cc1ccccc1)NC(=O)[C@@H](NC(=O)[C@H](CCCCN)NC(=O)[C@H](Cc1c[nH]c2ccccc12)NC(=O)[C@@H](N)CCCNC(=N)N)[C@@H](C)CC)[C@@H](C)CC)C(C)C)C(C)C)C(=O)N[C@H](C(=O)N[C@@H](CCCCN)C(=O)N[C@@H](C)C(=O)NCC(=O)N1CCC[C@H]1C(=O)N[C@@H](C)C(=O)N[C@H](C(=O)N[C@@H](C)C(=O)N[C@H](C(=O)N[C@H](C(=O)NCC(=O)N[C@@H](CCC(N)=O)C(=O)N[C@@H](C)C(=O)N[C@@H](C)C(=O)N[C@H](C(=O)N[C@H](C(=O)N[C@H](C(=O)N[C@@H](CCCCN)C(N)=O)C(C)C)C(C)C)[C@@H](C)O)C(C)C)C(C)C)C(C)C)[C@@H](C)CC,"broth microdilution, MH medium",NCCP 16054,"16 h, 37 °C, growth inhibition over 99%",2 µM
C[C@H]1COc2c(N3CCN(C)CC3)c(F)cc3c(=O)c(C(=O)O)cn1c23,agar dilution,"09-20, NDM-1",,16 µg/mL
CN1C(=O)Cc2ccc(F)c(CNCCCC3CN(c4ccc5c(n4)NC(=O)CO5)C(=O)O3)c21 (stereo not drawn),,ATCC 13883,,0.5 µg/mL
CC[C@H](C)[C@H](NC(=O)[C@H](C)NC(=O)[C@H](CCCCN)NC(=O)[C@H](CCCNC(=N)N)NC(=O)[C@H](CCCCN)NC(=O)[C@H](CCCNC(=N)N)NC(=O)[C@H](CCCCN)NC(=O)[C@@H](N)CCCNC(=N)N)C(=O)N[C@@H](CO)C(=O)NCC(=O)N[C@@H](CO)C(=O)N[C@@H](CC(C)C)C(=O)N[C@H](C(=O)N[C@H](C(=O)N[C@@H](CC(C)C)C(=O)N[C@@H](Cc1ccccc1)C(=O)NCC(=O)N[C@@H](Cc1ccc(O)cc1)C(N)=O)[C@@H](C)O)C(C)C,broth microdilution,ATCC 13883,highest value reported,16 µM
C[C@@H](O)[C@H]1C(=O)N2C(C(=O)O)=C(S[C@@H]3CN[C@H](C(=O)N(C)C)C3)[C@H](C)[C@H]12,broth microdilution,ATCC 43816 acrAB overexpressor,added: colistin 0.5 mg/L,< 0.5 µg/mL
C[C@@H](O)[C@H]1C(=O)N2C(C(=O)O)=C(SCCN=CN)C[C@H]12,,K2,"after induction, added: ceftazidime-avibactam 4/1",32 µg/mL
CCCCCCCC(=O)N[C@@H](CCCCN)C(=O)N[C@@H](CCCCN)C(=O)N[C@@H](C)C(=O)N[C@@H](C)C(=O)N[C@@H](CCCCN)C(=O)N[C@@H](C)C(=O)N[C@@H](C)C(=O)N[C@@H](CCCCN)C(=O)N[C@@H](CCCCN)C(=O)N1CCC[C@H]1C(=O)N[C@@H](C)C(=O)N[C@@H](CCCCN)C(=O)N[C@@H](C)C(=O)N[C@@H](C)C(=O)N[C@@H](CCCCN)C(N)=O,broth microdilution,ATCC 700603,"18 h, 37 °C, compound alone",> 80 µM
CC(C)(O/N=C(\C(=O)N[C@@H]1C(=O)N2C(C(=O)[O-])=C(C[n+]3ccccc3)CS[C@H]12)c1csc(N)n1)C(=O)O,broth microdilution,ATCC 43816 acrAB overexpressor,,< 0.5 µg/mL
NC(=O)[C@@H]1CC[C@@H]2CN1C(=O)N2OS(=O)(=O)O,,ATCC 1705 KPC NDM-1 ESBL,compound alone,16 µg/mL
CC[C@H](C)[C@H](N)C(=O)N[C@@H](CCCNC(=N)N)C(=O)N[C@H](C(=O)N[C@@H](Cc1c[nH]c2ccccc12)C(=O)N[C@@H](Cc1ccccc1)C(=O)N[C@H](C(=O)N[C@@H](CCCCN)C(=O)N[C@H](C(=O)N[C@@H](CCCNC(=N)N)C(=O)N[C@@H](CCCCN)C(=O)N[C@@H](Cc1c[nH]c2ccccc12)C(=O)N[C@@H](CCCCN)C(=O)N[C@@H](C)C(=O)N[C@H](C(=O)N[C@@H](Cc1ccc(O)cc1)C(=O)N[C@@H](Cc1c[nH]cn1)C(=O)N[C@H](C(N)=O)[C@@H](C)O)[C@@H](C)CC)C(C)C)[C@@H](C)CC)C(C)C,broth dilution,ATCC 700603,,50 µM
CN(C)c1cc(NC(=O)CNC(C)(C)C)c(O)c2c1C[C@H]1C[C@H]3[C@H](N(C)C)C(O)=C(C(N)=O)C(=O)[C@@]3(O)C(O)=C1C2=O,broth microdilution,KPC-25 producing,,2 µg/mL
CC[C@@H](C)[C@@H](N)C(=O)N[C@@H](C(=O)N[C@H](Cc1ccc(O)cc1)C(=O)N[C@@H](C(=O)N[C@H](CCN)C(=O)N[C@H](CC(C)C)C(=O)N[C@H](CO)C(=O)N[C@H](CCN)C(=O)N[C@@H](C(=O)N[C@H](CCN)C(=O)N[C@H](Cc1c[nH]cn1)C(=O)N[C@H](CCN)C(=O)N[C@H](C)C(=O)N[C@H](CCN)C(=O)N[C@H](CCN)C(N)=O)[C@H](C)CC)[C@H](C)CC)[C@H](C)CC,broth microdilution,"CDC 0005, Mueller-Hinton broth",,4 µg/mL
CC(=O)N[C@@H](CCCCN)C(=O)N[C@@H](CCCCN)C(=O)N[C@@H](CC(C)C)C(=O)N[C@@H](CC(C)C)C(=O)N[C@@H](CCCCN)C(=O)N[C@@H](CC(C)C)C(=O)N[C@@H](CC(C)C)C(=O)N[C@@H](CCCCN)C(=O)N[C@@H](CCCCN)C(=O)N1CCC[C@H]1C(=O)N[C@@H](CC(C)C)C(=O)N[C@@H](C)C(=O)N[C@@H](CC(C)C)C(=O)N[C@@H](CC(C)C)C(=O)N[C@@H](CCCCN)C(N)=O,broth microdilution,ATCC 700603,"18 h, 37 °C, compound alone",> 80 µM
